{"data": "Published values collected from several papers", "note": "Parts stem from different laboratories: compare values within a part only.", "chain of UniProt O75716 (whole entry, looked up)": "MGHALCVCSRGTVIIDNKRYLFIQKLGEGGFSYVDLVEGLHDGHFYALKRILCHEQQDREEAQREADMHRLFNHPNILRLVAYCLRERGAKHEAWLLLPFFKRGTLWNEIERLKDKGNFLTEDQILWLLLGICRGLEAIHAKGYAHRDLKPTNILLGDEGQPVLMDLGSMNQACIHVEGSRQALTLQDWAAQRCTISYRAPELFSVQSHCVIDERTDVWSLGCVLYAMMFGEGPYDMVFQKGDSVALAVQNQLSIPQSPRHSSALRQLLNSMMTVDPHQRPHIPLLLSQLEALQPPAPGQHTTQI", "chain of UniProt O75582 (whole entry, looked up)": "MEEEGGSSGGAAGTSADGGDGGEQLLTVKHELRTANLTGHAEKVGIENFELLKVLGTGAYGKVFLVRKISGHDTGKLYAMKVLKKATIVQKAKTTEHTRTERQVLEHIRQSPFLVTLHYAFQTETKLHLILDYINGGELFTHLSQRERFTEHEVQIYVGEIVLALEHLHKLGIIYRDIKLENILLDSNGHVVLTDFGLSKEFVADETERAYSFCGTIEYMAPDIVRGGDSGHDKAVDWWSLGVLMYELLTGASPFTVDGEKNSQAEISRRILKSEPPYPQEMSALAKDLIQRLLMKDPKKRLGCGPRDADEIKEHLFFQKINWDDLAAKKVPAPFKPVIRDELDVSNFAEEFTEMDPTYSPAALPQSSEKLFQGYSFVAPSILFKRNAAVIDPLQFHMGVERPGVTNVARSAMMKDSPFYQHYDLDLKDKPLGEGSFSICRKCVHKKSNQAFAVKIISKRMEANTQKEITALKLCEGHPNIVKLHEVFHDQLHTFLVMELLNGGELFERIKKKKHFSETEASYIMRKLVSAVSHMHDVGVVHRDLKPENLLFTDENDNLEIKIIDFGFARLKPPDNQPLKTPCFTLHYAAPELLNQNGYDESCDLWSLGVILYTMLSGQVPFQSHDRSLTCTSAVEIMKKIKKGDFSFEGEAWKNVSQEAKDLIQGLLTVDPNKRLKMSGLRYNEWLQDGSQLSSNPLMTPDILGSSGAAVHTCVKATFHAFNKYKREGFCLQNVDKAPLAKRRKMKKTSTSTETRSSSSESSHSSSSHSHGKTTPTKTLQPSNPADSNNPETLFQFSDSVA", "chain of UniProt P06493 (whole entry, looked up)": "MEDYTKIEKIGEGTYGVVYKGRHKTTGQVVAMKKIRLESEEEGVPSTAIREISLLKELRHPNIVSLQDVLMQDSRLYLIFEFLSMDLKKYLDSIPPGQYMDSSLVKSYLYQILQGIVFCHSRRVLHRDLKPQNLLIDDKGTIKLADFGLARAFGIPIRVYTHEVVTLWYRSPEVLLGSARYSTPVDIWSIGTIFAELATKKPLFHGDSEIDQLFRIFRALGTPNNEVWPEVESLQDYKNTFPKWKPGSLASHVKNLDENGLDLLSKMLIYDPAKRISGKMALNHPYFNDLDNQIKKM", "chain of UniProt P51451 (whole entry, looked up)": "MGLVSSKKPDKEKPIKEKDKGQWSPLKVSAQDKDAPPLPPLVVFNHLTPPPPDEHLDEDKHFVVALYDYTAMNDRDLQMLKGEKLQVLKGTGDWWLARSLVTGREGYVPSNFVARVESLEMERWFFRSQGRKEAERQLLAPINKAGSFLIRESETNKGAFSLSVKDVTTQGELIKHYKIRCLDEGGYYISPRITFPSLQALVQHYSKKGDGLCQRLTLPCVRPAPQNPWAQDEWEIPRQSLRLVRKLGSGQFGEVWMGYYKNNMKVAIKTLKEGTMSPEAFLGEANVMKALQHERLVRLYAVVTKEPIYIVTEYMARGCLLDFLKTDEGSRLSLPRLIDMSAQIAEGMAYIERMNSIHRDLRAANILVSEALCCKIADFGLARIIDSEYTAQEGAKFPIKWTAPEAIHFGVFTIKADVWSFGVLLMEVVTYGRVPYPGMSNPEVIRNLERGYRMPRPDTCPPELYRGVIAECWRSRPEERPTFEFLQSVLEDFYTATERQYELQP", "chain of UniProt P54760 (whole entry, looked up)": "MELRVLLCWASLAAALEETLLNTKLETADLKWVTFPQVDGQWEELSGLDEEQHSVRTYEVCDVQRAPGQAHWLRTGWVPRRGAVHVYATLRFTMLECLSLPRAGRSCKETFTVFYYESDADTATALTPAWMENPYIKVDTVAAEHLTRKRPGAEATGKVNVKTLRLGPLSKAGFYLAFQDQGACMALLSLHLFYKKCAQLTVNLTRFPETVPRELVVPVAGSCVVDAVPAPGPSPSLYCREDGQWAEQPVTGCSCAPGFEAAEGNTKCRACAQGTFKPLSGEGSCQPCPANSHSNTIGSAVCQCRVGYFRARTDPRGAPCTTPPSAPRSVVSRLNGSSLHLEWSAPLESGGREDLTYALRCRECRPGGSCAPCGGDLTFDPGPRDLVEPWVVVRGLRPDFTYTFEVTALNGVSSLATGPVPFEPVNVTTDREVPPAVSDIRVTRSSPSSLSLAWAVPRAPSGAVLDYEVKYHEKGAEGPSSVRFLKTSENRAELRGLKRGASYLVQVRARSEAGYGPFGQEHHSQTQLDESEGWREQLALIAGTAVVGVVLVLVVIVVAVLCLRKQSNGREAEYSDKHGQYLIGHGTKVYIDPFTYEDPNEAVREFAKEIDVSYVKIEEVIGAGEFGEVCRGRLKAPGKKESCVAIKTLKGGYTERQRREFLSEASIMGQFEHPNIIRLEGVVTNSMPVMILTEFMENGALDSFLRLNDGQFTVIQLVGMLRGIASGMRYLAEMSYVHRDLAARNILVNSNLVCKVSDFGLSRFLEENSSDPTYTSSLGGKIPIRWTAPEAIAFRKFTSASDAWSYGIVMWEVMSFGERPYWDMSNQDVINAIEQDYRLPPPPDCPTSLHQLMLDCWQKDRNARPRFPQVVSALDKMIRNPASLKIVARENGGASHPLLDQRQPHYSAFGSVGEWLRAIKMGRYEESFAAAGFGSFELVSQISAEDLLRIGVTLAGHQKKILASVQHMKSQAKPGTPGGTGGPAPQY", "chain of UniProt O95819 (whole entry, looked up)": "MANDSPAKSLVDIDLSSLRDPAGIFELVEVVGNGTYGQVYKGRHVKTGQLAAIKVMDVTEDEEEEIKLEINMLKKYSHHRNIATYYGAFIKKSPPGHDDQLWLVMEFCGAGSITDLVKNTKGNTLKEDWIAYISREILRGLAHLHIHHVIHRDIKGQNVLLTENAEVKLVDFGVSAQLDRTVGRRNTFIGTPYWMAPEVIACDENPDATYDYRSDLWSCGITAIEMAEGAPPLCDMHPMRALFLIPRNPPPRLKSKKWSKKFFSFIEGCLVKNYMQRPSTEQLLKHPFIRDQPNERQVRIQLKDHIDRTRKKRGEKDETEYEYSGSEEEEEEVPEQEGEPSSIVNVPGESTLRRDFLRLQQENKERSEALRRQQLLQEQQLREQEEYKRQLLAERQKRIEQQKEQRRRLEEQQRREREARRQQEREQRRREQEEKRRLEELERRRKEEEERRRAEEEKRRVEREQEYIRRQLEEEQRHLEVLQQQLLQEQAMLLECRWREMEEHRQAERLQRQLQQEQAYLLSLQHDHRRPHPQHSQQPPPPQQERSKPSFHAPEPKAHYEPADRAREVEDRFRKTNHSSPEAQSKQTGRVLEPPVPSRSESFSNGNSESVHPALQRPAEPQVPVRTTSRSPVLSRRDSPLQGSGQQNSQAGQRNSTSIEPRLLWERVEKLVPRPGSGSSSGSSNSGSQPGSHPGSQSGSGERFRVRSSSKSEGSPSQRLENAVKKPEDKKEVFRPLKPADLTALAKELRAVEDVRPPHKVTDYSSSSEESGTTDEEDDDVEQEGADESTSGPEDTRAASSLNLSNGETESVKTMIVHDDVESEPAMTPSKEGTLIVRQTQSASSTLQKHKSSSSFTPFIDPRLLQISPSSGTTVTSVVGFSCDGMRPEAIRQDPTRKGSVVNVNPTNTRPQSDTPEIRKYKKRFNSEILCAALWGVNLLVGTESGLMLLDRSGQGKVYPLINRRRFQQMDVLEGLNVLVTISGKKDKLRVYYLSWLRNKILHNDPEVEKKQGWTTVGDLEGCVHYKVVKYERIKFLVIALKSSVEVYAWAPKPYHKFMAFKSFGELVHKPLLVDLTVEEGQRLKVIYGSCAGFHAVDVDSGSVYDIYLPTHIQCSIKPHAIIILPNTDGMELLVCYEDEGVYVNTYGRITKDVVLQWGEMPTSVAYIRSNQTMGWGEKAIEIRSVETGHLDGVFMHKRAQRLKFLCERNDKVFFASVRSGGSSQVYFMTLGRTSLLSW", "chain of UniProt Q00534 (whole entry, looked up)": "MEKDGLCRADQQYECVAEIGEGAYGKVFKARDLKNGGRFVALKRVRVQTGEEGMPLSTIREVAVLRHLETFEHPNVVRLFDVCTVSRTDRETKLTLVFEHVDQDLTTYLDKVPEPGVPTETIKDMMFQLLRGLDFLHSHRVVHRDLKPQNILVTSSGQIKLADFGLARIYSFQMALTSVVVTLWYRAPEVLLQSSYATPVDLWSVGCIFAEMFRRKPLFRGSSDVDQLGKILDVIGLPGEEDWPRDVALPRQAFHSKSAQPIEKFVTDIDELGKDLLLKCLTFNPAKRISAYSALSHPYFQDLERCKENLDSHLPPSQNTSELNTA", "chain of UniProt P22612 (whole entry, looked up)": "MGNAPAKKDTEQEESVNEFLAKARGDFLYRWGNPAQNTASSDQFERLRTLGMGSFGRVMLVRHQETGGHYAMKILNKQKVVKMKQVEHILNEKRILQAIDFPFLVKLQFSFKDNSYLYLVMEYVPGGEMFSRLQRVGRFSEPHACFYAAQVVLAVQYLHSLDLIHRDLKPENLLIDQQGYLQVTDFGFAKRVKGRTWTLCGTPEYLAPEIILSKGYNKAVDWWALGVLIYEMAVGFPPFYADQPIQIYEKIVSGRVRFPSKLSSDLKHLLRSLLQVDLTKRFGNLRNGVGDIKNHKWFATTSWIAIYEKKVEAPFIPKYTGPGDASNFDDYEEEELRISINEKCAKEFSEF"}
{"data": "Set 1", "Compound": "COC[C@H]1OC(=O)c2coc3c2[C@@]1(C)C1=C(C3=O)[C@@H]2CCC(=O)[C@@]2(C)C[C@H]1OC(C)=O", "effect on": "enzyme activity", "mode": "inhibitor", "tested at": "0.5 µM", "relative to": "control"}
{"target": "STK16 (Homo sapiens, UniProt O75716)", "remaining activity": "88.8%"}
{"target": "MAP4K4 (Homo sapiens, UniProt O95819)", "remaining activity": "93%"}
{"target": "EPHB4 (Homo sapiens, UniProt P54760)", "remaining activity": "96.8%"}
{"target": "Cyclin-dependent kinase 1, with cyclin B (CDK1, Homo sapiens, UniProt P06493)", "remaining activity": "101%"}
{"target": "Cyclin-dependent kinase 4, with cyclin D3 (CDK4, Homo sapiens, UniProt P11802)", "remaining activity": "98.8%"}
{"target": "Cyclin-dependent kinase 6, with cyclin D3 (CDK6, Homo sapiens, UniProt Q00534)", "remaining activity": "85.8%"}
{"target": "BLK (Homo sapiens, UniProt P51451)", "remaining activity": "87.8%"}
{"target": "RPS6KA5 (Homo sapiens, UniProt O75582)", "remaining activity": "92.2%"}
{"target": "PRKACG (Homo sapiens, UniProt P22612)", "remaining activity": "96.1%"}
{"target": "HIPK2 (Homo sapiens, UniProt Q9H2X6)", "remaining activity": "99.6%"}
{"target": "SRMS (Homo sapiens, UniProt Q9H3Y6)", "remaining activity": "103%"}
{"data": "Set 2", "target": "HLA class I histocompatibility antigen, A alpha chain, allele A*80:01 (Homo sapiens, UniProt P04439)", "effect on": "peptide-MHC binding", "molecule type": "peptide", "reading": "direction not given"}
{"Sequence": "APVESMALF", "z-score of log IC50": 0.38}
{"Sequence": "AMPKTIYEL", "z-score of log IC50": 0.38}
{"Sequence": "FGALFMWLL", "z-score of log IC50": 0.38}
{"Sequence": "FMKSRVYSI", "z-score of log IC50": 0.38}
{"Sequence": "FLAFFSNGV", "z-score of log IC50": 0.38}
{"Sequence": "FTWQHNYYL", "z-score of log IC50": 0.38}
{"Sequence": "AKIALAVYK", "z-score of log IC50": 0.38}
{"Sequence": "DEGFHAATV", "z-score of log IC50": 0.38}
{"data": "Further values, each from its own experiment"}
{"Compound": "NP(N)(=O)NC(=O)c1ccc(F)cc1", "target or system": "mouse MPNST tumor cells", "assay": "high-content immunofluorescence imaging, refers to: nuclear SOX9", "conditions": "10 µM, 12 h, mean of 2 replicates", "scale": "relative to: DMSO control, higher = more nuclear SOX9", "quantity": "nuclear SOX9 intensity", "result": "101 % of DMSO"}
{"Compound": "CC(C)n1cnc(-c2ccc(F)cc2)c1-c1ncc(C(=O)Nc2ccc(N3CCN(C)CC3)cc2)[nH]1", "system": "human, idiopathic pulmonary fibrosis", "conditions": "30 mg twice daily, trial, with standard of care", "quantity": "serious AEs resulting in death", "result": "0%"}
{"Compound": "NCCCCCNC1(c2ccccc2)CCCCC1", "target or system": "mouse MPNST tumor cells", "assay": "high-content immunofluorescence imaging, refers to: nuclear SOX9", "conditions": "10 µM, 12 h, mean of 2 replicates", "scale": "relative to: DMSO control, higher = more nuclear SOX9", "quantity": "nuclear SOX9 intensity", "result": "168 % of DMSO"}
{"note": "A few entries again (set 2):"}
{"Sequence": "APVESMALF", "z-score of log IC50": 0.38}
{"Sequence": "AMPKTIYEL", "z-score of log IC50": 0.38}
{"Sequence": "FGALFMWLL", "z-score of log IC50": 0.38}
{"Sequence": "FMKSRVYSI", "z-score of log IC50": 0.38}
